# Measurements pooled from the literature.
# Protocols differ between the studies behind these lines. “And” joins repeats or separate records; there may be more than shown. Numbers after ± are the reported error.
SMILES,test,test system,conditions,scale,quantity,value
CC[C@H](C)[C@H](NC(=O)[C@H](CCCCN)NC(=O)CNC(=O)[C@H](CC(C)C)NC(=O)[C@H](Cc1ccccc1)NC(=O)[C@H](CCCCN)NC(=O)[C@H](CO)NC(=O)[C@H](Cc1ccccc1)NC(=O)[C@H](Cc1c[nH]c2ccccc12)NC(=O)[C@H](CCC(N)=O)NC(=O)[C@@H](NC(=O)[C@H](Cc1ccccc1)NC(=O)CCCCCNC(=O)CN1CCN(CC(=O)O)CCN(CC(=O)O)CCN(CC(=O)O)CC1)C(C)C)C(=O)N[C@@H](CCC(=O)O)C(=O)N1CCC[C@H]1C(=O)N[C@@H](CC(=O)O)C(=O)N[C@H](C(=O)N[C@@H](CO)C(=O)N[C@@H](CCC(N)=O)C(=O)N[C@H](C(=O)N[C@@H](CCC(N)=O)C(=O)N[C@@H](CC(=O)O)C(=O)N1CCC[C@H]1C(=O)N[C@@H](CC(N)=O)C(=O)N[C@@H](CC(=O)O)C(=O)N[C@@H](CCC(N)=O)C(=O)N[C@@H](Cc1ccc(O)cc1)C(=O)N[C@@H](CCC(=O)O)C(=O)N1CCC[C@H]1C(=O)N[C@@H](Cc1ccccc1)C(=O)O)C(C)C)C(C)C [copper-64 labelled],,"C57BL/6 male mouse, tumour-naive, thymus",2 h,,tissue uptake,2.2 ± 0.1 %ID/g
CC[C@H](C)[C@H](NC(=O)[C@H](CCCNC(=N)N)NC(=O)[C@H](CCCCN)NC(=O)[C@H](Cc1ccc(O)cc1)NC(=O)[C@H](CC(=O)O)NC(=O)[C@H](C)NC(=O)CNC(=O)CCOCCOCCOCCNC(=O)CN1CCN(CC(=O)O)CCN(CC(=O)O)CCN(CC(=O)O)CC1)C(=O)N[C@H](C(=O)N[C@H](C(=O)N[C@@H](CCCCN)C(=O)N[C@H](C(=O)N[C@@H](CC(N)=O)C(N)=O)C(C)C)C(C)C)[C@@H](C)O [copper-64 labelled],,"C57BL/6J mouse male, B16-F10 tumour, small intestine","intravenous, 1.85 MBq, 40 min, 67Ga complex",,tissue uptake,2.74 ± 0.067 %ID/g
CC(=O)N[C@H](C(=O)N[C@@H](CCCC(=O)OC(C)(C)C)C(=O)N[C@@H](CCC1CCCCC1)C(=O)N[C@@H](CC(=O)O)C(=O)COC(=O)c1c(C)cccc1C)C(C)(C)C,,"C57BL/6N mouse female, lung","intraperitoneal, dose not given, 24 h",,tissue concentration,29.4 µM and 122 µM and 73.4 µM
CN1Cc2cc(Cl)ccc2-n2c(nnc2C2CCN(c3cccc([18F])n3)CC2)C1,,"C57BL/6 mouse male, stomach","intravenous, 3.7 MBq, 30 min",,tissue uptake,14.4 ± 4.55 %ID/g
CSCC[C@H](N)C(=O)N[C@@H](C)C(=O)N[C@@H](CCCNC(=N)N)C(=O)N[C@@H](CCCNC(=N)N)C(=O)N[C@@H](CC(=O)O)C(=O)N[C@@H](CCCCN)C(=O)N[C@H](C(=O)N[C@@H](CC(=O)O)C(=O)N[C@@H](Cc1ccccc1)C(=O)N[C@@H](C)C(=O)N[C@@H](CCCNC(=N)N)C(=O)N[C@@H](CCCNC(=N)N)C(=O)N[C@@H](CCCNC(=N)N)C(=O)N[C@@H](CCCNC(=N)N)C(=O)NCCCCCC(=O)NCCCCC(NC(=O)CCCCCNC(=O)[C@H](CCCNC(=N)N)NC(=O)[C@H](CCCNC(=N)N)NC(=O)[C@H](CCCNC(=N)N)NC(=O)[C@H](CCCNC(=N)N)NC(=O)[C@H](C)NC(=O)[C@H](Cc1ccccc1)NC(=O)[C@H](CC(=O)O)NC(=O)[C@@H](NC(=O)[C@H](CCCCN)NC(=O)[C@H](CC(=O)O)NC(=O)[C@H](CCCNC(=N)N)NC(=O)[C@H](CCCNC(=N)N)NC(=O)[C@H](C)NC(=O)[C@@H](N)CCSC)[C@@H](C)O)C(=O)NCCCCC(NC(=O)C(CCCCNC(=O)CCCCCNC(=O)[C@H](CCCNC(=N)N)NC(=O)[C@H](CCCNC(=N)N)NC(=O)[C@H](CCCNC(=N)N)NC(=O)[C@H](CCCNC(=N)N)NC(=O)[C@H](C)NC(=O)[C@H](Cc1ccccc1)NC(=O)[C@H](CC(=O)O)NC(=O)[C@@H](NC(=O)[C@H](CCCCN)NC(=O)[C@H](CC(=O)O)NC(=O)[C@H](CCCNC(=N)N)NC(=O)[C@H](CCCNC(=N)N)NC(=O)[C@H](C)NC(=O)[C@@H](N)CCSC)[C@@H](C)O)NC(=O)CCCCCNC(=O)[C@H](CCCNC(=N)N)NC(=O)[C@H](CCCNC(=N)N)NC(=O)[C@H](CCCNC(=N)N)NC(=O)[C@H](CCCNC(=N)N)NC(=O)[C@H](C)NC(=O)[C@H](Cc1ccccc1)NC(=O)[C@H](CC(=O)O)NC(=O)[C@@H](NC(=O)[C@H](CCCCN)NC(=O)[C@H](CC(=O)O)NC(=O)[C@H](CCCNC(=N)N)NC(=O)[C@H](CCCNC(=N)N)NC(=O)[C@H](C)NC(=O)[C@@H](N)CCSC)[C@@H](C)O)C(N)=O)[C@@H](C)O (some centres unmarked),,"C57BL/6 mouse female, skull","dose not given, 3 h",baseline: total,tissue distribution,19.8% and 12.5% and 13.3%
CSCC[C@H](NC(=O)CNC(=O)[C@H](CCCCN)NC(=O)[C@H](CC(C)C)NC(=O)[C@@H]1CCCN1C(=O)[C@H](CO)NC(=O)[C@H](Cc1c[nH]cn1)NC(=O)[C@H](Cc1c[nH]c2ccccc12)NC(=O)[C@H](CCCNC(=N)N)NC(=O)[C@H](CC(C)C)NC(=O)[C@H](CCCNC(=N)N)NC(=O)[C@H](Cc1c[nH]c2ccccc12)NC(=O)[C@H](CS)NC(=O)CCCCCNC(=O)CN1CCN(CC(=O)O)CCN(CC(=O)O)CCN(CC(=O)O)CC1)C(=O)O [copper-64 labelled],,"BALB/c nude mouse, Huh-7 tumour, lymph node","intravenous, 2 h, ex vivo biodistribution",,tissue uptake,2.02 %ID/g
CC[C@H](C)[C@H](NC(=O)[C@H](CCCNC(=N)N)NC(=O)[C@H](CCCCN)NC(=O)[C@H](Cc1ccc(O)cc1)NC(=O)[C@H](CC(=O)O)NC(=O)[C@H](C)NC(=O)CNC(=O)CCOCCOCCOCCNC(=O)CN1CCN(CC(=O)O)CCN(CC(=O)O)CCN(CC(=O)O)CC1)C(=O)N[C@H](C(=O)N[C@@H](CC(C)C)C(=O)N[C@@H](CCCCN)C(=O)N[C@H](C(=O)N[C@@H](CC(N)=O)C(N)=O)C(C)C)[C@@H](C)O [copper-64 labelled],ex vivo gamma counting,"male C57BL/6J mouse, B16-F10 tumour, B16-F10 tumour","intravenous, 1.85 MBq, 5 min",,tissue uptake,5.52 ± 1.35 %ID/g
CSCC[C@H](N)C(=O)N[C@@H](C)C(=O)N[C@@H](Cc1c[nH]c2ccccc12)C(=O)N[C@@H](Cc1c[nH]cn1)C(=O)N[C@@H](CC(=O)O)C(=O)N[C@@H](CC(=O)O)C(=O)N[C@@H](CCC(=O)O)C(=O)N[C@@H](CCC(=O)O)C(=O)N[C@@H](Cc1ccccc1)C(=O)N[C@@H](C)C(=O)N[C@@H](CCCNC(=N)N)C(=O)N[C@@H](CCCNC(=N)N)C(=O)N[C@@H](CCCNC(=N)N)C(=O)N[C@@H](CCCNC(=N)N)C(=O)NCCCCCC(=O)NCCCCC(NC(=O)CCCCCNC(=O)[C@H](CCCNC(=N)N)NC(=O)[C@H](CCCNC(=N)N)NC(=O)[C@H](CCCNC(=N)N)NC(=O)[C@H](CCCNC(=N)N)NC(=O)[C@H](C)NC(=O)[C@H](Cc1ccccc1)NC(=O)[C@H](CCC(=O)O)NC(=O)[C@H](CCC(=O)O)NC(=O)[C@H](CC(=O)O)NC(=O)[C@H](CC(=O)O)NC(=O)[C@H](Cc1c[nH]cn1)NC(=O)[C@H](Cc1c[nH]c2ccccc12)NC(=O)[C@H](C)NC(=O)[C@@H](N)CCSC)C(=O)NCCCCC(NC(=O)C(CCCCNC(=O)CCCCCNC(=O)[C@H](CCCNC(=N)N)NC(=O)[C@H](CCCNC(=N)N)NC(=O)[C@H](CCCNC(=N)N)NC(=O)[C@H](CCCNC(=N)N)NC(=O)[C@H](C)NC(=O)[C@H](Cc1ccccc1)NC(=O)[C@H](CCC(=O)O)NC(=O)[C@H](CCC(=O)O)NC(=O)[C@H](CC(=O)O)NC(=O)[C@H](CC(=O)O)NC(=O)[C@H](Cc1c[nH]cn1)NC(=O)[C@H](Cc1c[nH]c2ccccc12)NC(=O)[C@H](C)NC(=O)[C@@H](N)CCSC)NC(=O)CCCCCNC(=O)[C@H](CCCNC(=N)N)NC(=O)[C@H](CCCNC(=N)N)NC(=O)[C@H](CCCNC(=N)N)NC(=O)[C@H](CCCNC(=N)N)NC(=O)[C@H](C)NC(=O)[C@H](Cc1ccccc1)NC(=O)[C@H](CCC(=O)O)NC(=O)[C@H](CCC(=O)O)NC(=O)[C@H](CC(=O)O)NC(=O)[C@H](CC(=O)O)NC(=O)[C@H](Cc1c[nH]cn1)NC(=O)[C@H](Cc1c[nH]c2ccccc12)NC(=O)[C@H](C)NC(=O)[C@@H](N)CCSC)C(N)=O (some centres unmarked),,"mouse C57BL/6 female, spine","6 h, radioiodinated peptide",baseline: total radioactivity,tissue distribution,5.61% and 6.34%

# A few entries again:
SMILES,test,test system,conditions,scale,quantity,value
CSCC[C@H](NC(=O)CNC(=O)[C@H](CCCCN)NC(=O)[C@H](CC(C)C)NC(=O)[C@@H]1CCCN1C(=O)[C@H](CO)NC(=O)[C@H](Cc1c[nH]cn1)NC(=O)[C@H](Cc1c[nH]c2ccccc12)NC(=O)[C@H](CCCNC(=N)N)NC(=O)[C@H](CC(C)C)NC(=O)[C@H](CCCNC(=N)N)NC(=O)[C@H](Cc1c[nH]c2ccccc12)NC(=O)[C@H](CS)NC(=O)CCCCCNC(=O)CN1CCN(CC(=O)O)CCN(CC(=O)O)CCN(CC(=O)O)CC1)C(=O)O [copper-64 labelled],,"BALB/c nude mouse, Huh-7 tumour, lymph node","intravenous, 2 h, ex vivo biodistribution",,tissue uptake,2.02 %ID/g
